Published values from different studies.
Lines come from different studies, so protocols differ. Values joined by “and” are separate records of one study, mostly repeats; a detail may differ. ± marks the error that the study gave.
Luciferin 4-monooxygenase: Luciferin 4-monooxygenase (Photinus pyralis, UniProt P08659)

C[C@H]1[C@H](OC(=O)CCC(=O)O)O[C@@H]2O[C@@]3(C)CC[C@H]4[C@H](C)CC[C@@H]1[C@@]24OO3  inhibition (Non-structural polyprotein pORF1, helicase domain (Hepatitis E virus genotype 1, UniProt P33424); ATPase activity; 4.8 µM, added: ATP 100 µM): 23.5%
CC(C)c1noc2ncc(C(=O)c3ccccc3O)cc12  inhibition (Scn2a (Rattus norvegicus, UniProt P04775); ion current, inhibitor, whole-cell patch clamp; 10 µM): 1% and 5.4% and 11.6% and 6% and 7.5%
COc1cccc(OC[C@@H]2CN(CC(=O)N3CCc4ccccc43)CCO2)c1  inhibition (HTR1E (Homo sapiens, UniProt P28566); radioligand binding; concentration not given, added: [3H]5-HT): -11.4%
CN(Cc1ccccc1Cl)[C@@H]1c2ccccc2C2(CCNCC2)[C@H]1O  inhibition (Luciferin 4-monooxygenase; luciferase luminescence, inhibitor; cell-free; 50 µM, counter-screen): 4.58%
Cn1cncc1[C@@](N)(c1ccc(Cl)cc1)c1ccc2c(c1)c(-c1cccc(Cl)c1)cc(=O)n2C  inhibition (Protein farnesyltransferase (Homo sapiens, UniProt P49354+P49356); enzyme activity, inhibitor, scintillation proximity; leukaemia patients, leukaemic blasts; 200 mg/m^2, 10 days, median; baseline: pretreatment): 74%
CCCN(O)N=Nc1ccc(S(=O)(=O)Nc2cc(C)on2)cc1  inhibition (α-glucosidase, rat intestine; enzyme activity; 240 µg/mL, added: 4-nitrophenyl α-D-glucopyranoside): 52.5 ± 0.29%
O=C(Nc1cccc2c(=O)cc(-c3nnn[nH]3)oc12)c1ccc(OCCCCc2ccccc2)cc1  inhibition (Volume-regulated anion channel subunit LRRC8C, part LRRC8A IL1 chimera (LRRC8C, Homo sapiens, UniProt Q8TDW0, L136K); ion current, inhibitor, whole-cell patch clamp; HCT LRRC8-/- cells; 0.3 µM, +100 mV): 72.2% and 61.3% and 75.1% and 73.5% and 33.7%
CN(C)c1cnn(CC2CC(c3ccccc3)=NO2)c(=O)c1 (stereo not shown)  inhibition (Luciferin 4-monooxygenase; luciferase luminescence, inhibitor; cell-free; 50 µM, counter-screen): 86.6%
CC[C@@H]1[C@H](F)C(=O)N[C@@H]1COc1nccc2cc(C(N)=O)c(OC)cc12  inhibition (VRK2 (Homo sapiens, UniProt Q86Y07); ATP-site probe binding, ActivX profiling; THP-1 cell lysate; 0.2 mM, Lys2 site): -28.4%
Cc1cccc(N(O)N=Nc2ccc(S(=O)(=O)Nc3nccs3)cc2)c1  inhibition (α-glucosidase, rat intestine; enzyme activity; 240 µg/mL, added: 4-nitrophenyl α-D-glucopyranoside): 35 ± 0.013%
C=CCCCCCCCCC(=O)O  inhibition (Palmitoyl-protein thioesterase 1 (Homo sapiens, UniProt P50897); Spectrum Collection screen; concentration not given, added: substrate 20 µM): 62%
Clc1cncc(OC[C@H]2CN(CCN3CCc4ccccc43)CCO2)c1  inhibition (DRD1 (Homo sapiens, UniProt P21728); radioligand binding; concentration not given, added: [3H]SCH23390): 44.1%
[2H]c1cc(C)c(NC(=O)c2cnc(Nc3cc(N4CCCCC4)nc(C)n3)s2)c(Cl)c1  inhibition (FRK (Homo sapiens, UniProt P42685); 0.01 µM): > 90%
CCCN(O)N=Nc1ccc(S(=O)(=O)Nc2nccs2)cc1  inhibition (α-glucosidase, rat intestine; enzyme activity; 120 µg/mL, added: 4-nitrophenyl α-D-glucopyranoside): 30 ± 0.16%
CC(C(=O)O)c1cccc(Oc2ccccc2)c1 (stereo not shown)  inhibition (PTGS1 (Ovis aries, UniProt P05979); biochemical; 100 µM): no inhibition
CCCN(O)N=Nc1ccc(S(=O)(=O)Nc2onc(C)c2C)cc1  inhibition (α-glucosidase, rat intestine; enzyme activity; 180 µg/mL, added: 4-nitrophenyl α-D-glucopyranoside): 37.5 ± 0.09%
CCc1oc2ccccc2c1C(=O)c1cc(Br)c(O)c(Br)c1  inhibition (SLC22A12 (Homo sapiens, UniProt Q96S37, S35A); uric acid uptake; HEK293T transfected with SLC22A12 S35A; 0.5 µM, 10 min, 37 °C, mean, added: [14C]urate 200 µM): 63.8%
CCN(O)N=Nc1ccc(S(=O)(=O)Nc2cc(C)on2)cc1  inhibition (α-glucosidase, rat intestine; enzyme activity; 300 µg/mL, added: 4-nitrophenyl α-D-glucopyranoside): 70 ± 0.01%
O=C(NO)c1ccc(CN2CCCCc3ccccc32)c(F)c1  inhibition (Tspo (Rattus norvegicus, UniProt P16257); radioligand binding, radioligand displacement; 10 µM, mean of replicates): -16.3%

Some of these lines once more:
C[C@H]1[C@H](OC(=O)CCC(=O)O)O[C@@H]2O[C@@]3(C)CC[C@H]4[C@H](C)CC[C@@H]1[C@@]24OO3  inhibition (Non-structural polyprotein pORF1, helicase domain (Hepatitis E virus genotype 1, UniProt P33424); ATPase activity; 4.8 µM, added: ATP 100 µM): 23.5%
